Experimental data from different studies.
Each numbered part is a random draw from the data of one study; scales do not carry over between parts. Positions count from the first letter of the parent shown.

Block 1 — target: CCNA2, cyclin fold, Cln2 fusion (human); technique: yeast growth competition, sequencing; medium: yeast; setting: strong parent motif; reference: not given; reading: higher = stronger binding
Parent: GMNC docking peptide (human); KNAKRNLSSEFAN
Substitution | normalised enrichment score
KNAKRNLSSEFFN [A12F] | 4.65
KNAWRNLSSEFAN [K4W] | 2.54
KNAKRNLSSTFAN [E10T] | 1.82
KNAKRNLSSEAAN [F11A] | 0.796
KNAHRNLSSEFAN [K4H] | 2.66
KNAKRNLSEEFAN [S9E] | 5.1
KNAKRNLSSFFAN [E10F] | 2.22
KNAKQNLSSEFAN [R5Q] | 0.508
KNCKRNLSSEFAN [A3C] | 5.38
KNAKRNLSSEFMN [A12M] | 4.77
KNAKRNCSSEFAN [L7C] | 0.741
KNAKRNLSSEFDN [A12D] | 5.1
KNMKRNLSSEFAN [A3M] | 1.85
KNAKRNLSSPFAN [E10P] | 0.221
KNAKRNLSSIFAN [E10I] | 3.6
KNAKRNLSSEIAN [F11I] | 0.938
KNAKRNLHSEFAN [S8H] | 3.36
KNAKRNASSEFAN [L7A] | 0.743
KNAQRNLSSEFAN [K4Q] | 2.94

Block 2 — technique: DHFR PCA, deep sequencing; medium: yeast; added: (+)-ABA 710 µM; reference: wild-type fitted maximum; reading: higher = stronger binding
Target: ABI1, truncated, D143A, DHFR fusion (Arabidopsis thaliana)
Setting: methotrexate growth selection, single substitutions
Parent: PYL1, truncated, DHFR fusion (Arabidopsis thaliana); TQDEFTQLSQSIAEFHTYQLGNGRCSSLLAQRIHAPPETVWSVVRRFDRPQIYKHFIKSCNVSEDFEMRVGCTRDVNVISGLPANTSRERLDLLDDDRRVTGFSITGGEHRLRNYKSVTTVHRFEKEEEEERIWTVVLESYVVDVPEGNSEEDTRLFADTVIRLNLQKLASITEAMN
Substitution | relative binding score [%]
N85M | 104
F5W | 109
V121M | 74.7
F56M | 98.2
V118Y | 83.4
V78A | 82.1
D75M | 100
S27M | 88.6
T1K | 102
I12Y | 81.2
N165E | 6.58
K126P | 114
N61Q | 103
D65P | 103
V43D | -2.92
S87H | 18.4
D65W | 90.9
E174T | 94.2
L166D | 7.54
Y141V | -11.2
F47N | -4.76
S63E | 105
E125K | 113
L29W | 63.5

Block 3 — technique: universal PBM; form: double-stranded DNA, one strand shown; medium: in vitro; tested at: not given; reading: higher = stronger binding
Target: Sal-like protein 4, full length isoform B (SALL4, Homo sapiens, UniProt Q9UJQ4-2, residues 1-616)
Setting: 8-mer, flanks averaged, mean of replicates
Strand | E-score
AGACACAT | 0.037
AGTTTGCA | -0.00074
AAATGGGC | -0.0833
TCCTGCCA | -0.138
CGTGCGCC | -0.214
CCATCTGC | -0.0242
TAACTGAA | 0.106
ACAGGCAC | -0.193
TACCACAA | 0.256
CCTAATGC | -0.0873
ACCCTCCT | -0.21
CGTGACAG | -0.241
AGGTCTCA | -0.0798
AGCAATAC | 0.191
GTCTTGTA | 0.025
CGAACCGC | -0.333
TACCCACA | -0.00847
AATATTAC | 0.462
AAGACGCA | 0.0047
CTCAATCC | -0.0595
GTGACCCA | -0.226
CGTGCATA | 0.136
AGATCCCC | -0.146
CAATGTAG | 0.0084
ACCTCAGC | -0.071

Block 4 — technique: RNA Bind-n-Seq; form: RNA; medium: in vitro; tested at: 365 nM; reference: no-protein control; reading: higher = stronger binding
Target: RNA binding protein fox-1 homolog 2, RRM domain, GST-SBP tag (RBFOX2, Homo sapiens, UniProt O43251-10, residues 100-194)
Setting: natural RNA segment, single round, ends assumed
Constant ends, left off below: GGGAGUUCUACAGUCCGACGAUC … UGGAAUUCUCGGGUGCCAA
Residues (chain): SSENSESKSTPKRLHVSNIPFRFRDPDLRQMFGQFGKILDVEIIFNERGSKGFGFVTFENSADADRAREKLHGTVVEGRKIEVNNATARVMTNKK
Strand | RBNS enrichment (R)
UGCUGCCAUGUCUCAGAUGAGGAGGGAGAGAAGGAGGCCGCCAGACUCGAGAGGUGGGAGGAACUCCUUGCACACACCCUGAGCUUUUGCCACUUCUAUCAUUUUUGAGC | 1.64
CCUUCCUCACCGCAGAUGUCUGUCUCCGAGAUCUGCAACCGUCUUGCUGACUAGGGCUUGGGCUAGAAGAGAAGAGCUGGAUUACUCGCUGUUUCCUGCACUUAAGCCUU | 0.574
CACUGUUAUCUUGCCCUGUGUCUCAAUCCUGGUUGUCUAAGUUGGGACACCUGAGUCUCUUCCUCUUGUUCCUUCCACUAUGAGGCUCUGAGCCUCUCUGUGCCUUGGGC | 0.307
GCUUUUUUUCUAGUUUUAUGGACUUGGUUACUGUAAUAAUGUCUUGUUUUUAGCCAUGUAACUACAAACAGAUAUUCUCUUGAUGUCUUAGUAAAUUUGCAUUUGAUAUA | 1.63
CACACUCAAUGAACCCCACCAGAGGGGGACGAGGGGCAGGGCUGUCAGCUGCUGCUUCUGGGCCACAGGGGGGGCCCCCAGGACCUUGCACUUUAUUCCUGCCCACGUGG | 0.497
CAGCCGGAAGGCCAGCGCCUGGGAUGGAGCCAGCAGAACCCCAUGCCGAGGUCCAGGAGGCCUUGCCUGCUCUUCAUCUGCCUGCGAGCUGUAGGACCUGCAUGGGAAAU | 2.16
UGUACACUCCCUGGAAUGUAAUUGUUAACAUUCUUACAUUUGGGCCUCUUCACACACCGUCUGCCUGCCUGCUUCCUUCUGAGAAUAUUUUCCCAGUAUCUCCAGGCCUU | 0.446
UAAUGCUUUUAGUAGAGUACUAGAUAGUAUCAGUUUUGGAUUCUUAUUGUUAUCACCUAUGUACAAUGGAAAGGGAUUUUAAGCACAAACCUGCUGCUCAUCUAACGUUG | 0.338

Some of these lines once more (block 3):
Strand | E-score
AGGTCTCA | -0.0798
AGCAATAC | 0.191
GTCTTGTA | 0.025
CGAACCGC | -0.333
TACCCACA | -0.00847
AATATTAC | 0.462
AAGACGCA | 0.0047
CTCAATCC | -0.0595
GTGACCCA | -0.226
CGTGCATA | 0.136
AGATCCCC | -0.146
CAATGTAG | 0.0084
ACCTCAGC | -0.071
